Measurements gathered from unrelated publications.
Each line is one published result; not all experiments were run side by side. ± gives the spread as reported.

The tissue uptake of `CSCC[C@H](NC(=O)CNC(=O)[C@H](CCCCN)NC(=O)[C@H](CC(C)C)NC(=O)[C@@H]1CCCN1C(=O)[C@H](CO)NC(=O)[C@H](Cc1c[nH]cn1)NC(=O)[C@H](Cc1c[nH]c2ccccc12)NC(=O)[C@H](CCCNC(=N)N)NC(=O)[C@H](CC(C)C)NC(=O)[C@H](CCCNC(=N)N)NC(=O)[C@H](Cc1c[nH]c2ccccc12)NC(=O)[C@H](CS)NC(=O)CCCCCNC(=O)CN1CCN(CC(=O)O)CCN(CC(=O)O)CCN(CC(=O)O)CC1)C(=O)O` [copper-64 labelled] is reported as 0.58 %ID/g (ex vivo biodistribution; BALB/c nude mice, muscle; intravenous, dose not given, 1 h, Huh-7 tumour-bearing).
`CC(C)C[C@@H](NC(=O)[C@@H](CCCNC(=N)N)NC(=O)[C@@H](Cc1c[nH]cn1)NC(=O)[C@@H](Cc1c[nH]c2ccccc12)NC(=O)[C@@H](Cc1c[nH]cn1)NC(=O)[C@@H](Cc1ccccc1)NC(=O)[C@H](NC(=O)[C@@H](Cc1ccc(O)cc1)NC(=O)CNC(=O)CNC(=O)CCOCCOCCOCCNC(=O)CN1CCN(CC(=O)O)CCN(CC(=O)O)CC1)[C@H](C)O)C(=O)N[C@H](CC(N)=O)C(=O)N1CCC[C@@H]1C(=O)O` [gallium-68 labelled] gave a tissue uptake of 0.46 ± 0.25 %ID/g (C57BL/6 mice, male, bone; intravenous, 1.85 MBq, 60 min, with: GP12 blocking).
With `CCCC[C@H]1C(=O)N(C)[C@@H](CCCC)C(=O)N[C@@H](CCCNC(=O)CN2CCN(CC(=O)O)CCN(CC(=O)O)CCN(CC(=O)O)CC2)C(=O)N[C@H](C(=O)NCC(N)=O)CSCC(=O)N[C@@H](Cc2ccc(O)cc2)C(=O)N(C)[C@@H](C)C(=O)N[C@@H](CC(N)=O)C(=O)N2CCC[C@H]2C(=O)N[C@@H](Cc2c[nH]cn2)C(=O)N[C@@H](CC(C)C)C(=O)N(C)CC(=O)N[C@@H](Cc2c[nH]c3ccccc23)C(=O)N[C@@H](CO)C(=O)N[C@@H](Cc2c[nH]c3ccccc23)C(=O)N1C` [gallium-68 labelled] the tissue uptake was 9.54 ± 0.7 %ID/g (NOD/SCID mice, CHO-hPD-L1 xenograft, blood; 60 min, atezolizumab 10 mg/kg pretreatment).
The tissue uptake of `CC[C@H](C)[C@H](NC(=O)[C@@H](Cc1c[nH]c2ccccc12)NC(=O)[C@@H]1CCCN1C(=O)[C@H](CCCCN)NC(=O)[C@H](CCCCN)NC(=O)CCNC(=O)CCNC(=O)CN1CCN(CC(=O)O)CCN(CC(=O)O)CCN(CC(=O)O)CC1)C(=O)N[C@@H](C[Si](C)(C)C)C(=O)O` [gallium-68 labelled] is reported as 0.24 ± 0.06 %ID/g (ex vivo biodistribution; nude mice, HT-29 xenograft, stomach; 90 min, with: levocabastine 0.5 µmol).
With `CC[C@H](C)[C@H](NC(=O)[C@H](CCCNC(=N)N)NC(=O)[C@H](CCCCN)NC(=O)[C@H](Cc1ccc(O)cc1)NC(=O)[C@H](CC(=O)O)NC(=O)[C@H](C)NC(=O)CNC(=O)CCOCCOCCOCCNC(=O)CN1CCN(CC(=O)O)CCN(CC(=O)O)CCN(CC(=O)O)CC1)C(=O)N[C@H](C(=O)N[C@@H](CC(C)C)C(=O)N[C@@H](CCCCN)C(=O)N[C@H](C(=O)N[C@@H](CC(N)=O)C(N)=O)C(C)C)[C@@H](C)O` [copper-64 labelled] the tissue uptake was 1.15 ± 0.278 %ID/g (ex vivo gamma counting; C57BL/6J male mice, B16-F10 tumour, thymus; intravenous, 1.85 MBq, 5 min).
`C[C@H](O)[C@@H](NC(=O)[C@H]1CCCN1C(=O)[C@@H](CCCCN)NC(=O)[C@@H](CO)NC(=O)[C@@H](Cc1ccc(O)cc1)NC(=O)[C@@H](CC(N)=O)NC(=O)CCOCCOCCOCCNC(=O)CN1CCN(CC(=O)O)CCN(CC(=O)O)CCN(CC(=O)O)CC1)C(=O)N[C@H](CC(=O)O)C(=O)N[C@H](CCCNC(=N)N)C(=O)N[C@H](CCC(N)=O)C(=O)N[C@H](Cc1ccc(O)cc1)C(=O)N[C@H](Cc1c[nH]cn1)C(=O)N[C@H](Cc1ccccc1)C(N)=O` [copper-64 labelled] has a tissue uptake of 0.17 ± 0.03 %ID/g (C57BL/6J mice, spleen; intravenous, 1.85 MBq, 1.333 h, radiolabelled).
With `CC[C@H](C)[C@H](NC(=O)[C@H](CCCNC(=N)N)NC(=O)[C@H](CCCCN)NC(=O)[C@H](Cc1ccc(O)cc1)NC(=O)[C@H](CC(=O)O)NC(=O)[C@H](C)NC(=O)CNC(=O)CCOCCOCCOCCNC(=O)CN1CCN(CC(=O)O)CCN(CC(=O)O)CCN(CC(=O)O)CC1)C(=O)N[C@H](C(=O)N[C@H](C(=O)N[C@@H](CCCCN)C(=O)N[C@H](C(=O)N[C@@H](CC(N)=O)C(N)=O)C(C)C)C(C)C)[C@@H](C)O` [copper-64 labelled] the tissue uptake was 2.09 ± 0.014 %ID/g (ex vivo gamma counting; C57BL/6J male mice, B16-F10 tumour, lung; intravenous, 1.85 MBq, 100 min).
`CC[C@H](C)[C@H](NC(=O)[C@H](CCCCN)NC(=O)CNC(=O)[C@H](CC(C)C)NC(=O)[C@H](Cc1ccccc1)NC(=O)[C@H](CCCCN)NC(=O)[C@H](CO)NC(=O)[C@H](Cc1ccccc1)NC(=O)[C@H](Cc1c[nH]c2ccccc12)NC(=O)[C@H](CCC(N)=O)NC(=O)[C@@H](NC(=O)[C@H](Cc1ccccc1)NC(=O)CCCCCNC(=O)CN1CCN(CC(=O)O)CCN(CC(=O)O)CCN(CC(=O)O)CC1)C(C)C)C(=O)N[C@@H](CCC(=O)O)C(=O)N1CCC[C@H]1C(=O)N[C@@H](CC(=O)O)C(=O)N[C@H](C(=O)N[C@@H](CO)C(=O)N[C@@H](CCC(N)=O)C(=O)N[C@H](C(=O)N[C@@H](CCC(N)=O)C(=O)N[C@@H](CC(=O)O)C(=O)N1CCC[C@H]1C(=O)N[C@@H](CC(N)=O)C(=O)N[C@@H](CC(=O)O)C(=O)N[C@@H](CCC(N)=O)C(=O)N[C@@H](Cc1ccc(O)cc1)C(=O)N[C@@H](CCC(=O)O)C(=O)N1CCC[C@H]1C(=O)N[C@@H](Cc1ccccc1)C(=O)O)C(C)C)C(C)C` [copper-64 labelled] gave a tissue uptake of 4.91 ± 0.8 %ID/g (GZMB-/- mice, CT26 tumour-bearing, small intestine; 2 h, vehicle-treated).
